Published values from different studies.
A part holds a random share of what one study measured.
Chain of UniProt Q92772 (whole entry, looked up): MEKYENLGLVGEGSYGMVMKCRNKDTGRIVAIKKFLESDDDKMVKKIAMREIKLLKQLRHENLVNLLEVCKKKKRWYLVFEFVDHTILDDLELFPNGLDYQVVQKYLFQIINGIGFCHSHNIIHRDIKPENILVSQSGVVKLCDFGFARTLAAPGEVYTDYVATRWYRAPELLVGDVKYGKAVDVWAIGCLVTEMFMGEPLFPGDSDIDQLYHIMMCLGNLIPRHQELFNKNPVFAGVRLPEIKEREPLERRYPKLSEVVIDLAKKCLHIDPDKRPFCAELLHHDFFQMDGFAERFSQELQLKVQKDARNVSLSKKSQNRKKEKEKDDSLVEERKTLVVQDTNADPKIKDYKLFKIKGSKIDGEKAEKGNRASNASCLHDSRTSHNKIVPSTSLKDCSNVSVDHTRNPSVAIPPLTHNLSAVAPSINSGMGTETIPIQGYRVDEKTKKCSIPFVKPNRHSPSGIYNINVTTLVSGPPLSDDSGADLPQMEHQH
Chain of UniProt Q9Y616 (whole entry, looked up): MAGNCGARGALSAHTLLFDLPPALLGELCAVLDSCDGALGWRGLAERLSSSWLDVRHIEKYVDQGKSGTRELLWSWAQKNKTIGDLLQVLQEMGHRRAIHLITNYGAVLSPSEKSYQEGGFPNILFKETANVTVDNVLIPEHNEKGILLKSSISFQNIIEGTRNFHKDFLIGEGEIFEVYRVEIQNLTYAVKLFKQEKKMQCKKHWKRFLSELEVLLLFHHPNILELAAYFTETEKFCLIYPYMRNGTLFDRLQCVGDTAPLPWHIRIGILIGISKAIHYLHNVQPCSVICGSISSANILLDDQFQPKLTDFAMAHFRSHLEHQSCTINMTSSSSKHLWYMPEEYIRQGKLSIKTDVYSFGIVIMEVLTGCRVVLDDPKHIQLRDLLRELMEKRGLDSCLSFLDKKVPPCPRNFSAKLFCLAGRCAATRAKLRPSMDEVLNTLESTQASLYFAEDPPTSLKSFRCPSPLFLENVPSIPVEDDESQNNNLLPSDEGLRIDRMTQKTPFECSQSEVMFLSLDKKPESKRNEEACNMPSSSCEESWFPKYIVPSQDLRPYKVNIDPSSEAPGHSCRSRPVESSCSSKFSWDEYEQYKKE
Chain of UniProt P19525 (whole entry, looked up): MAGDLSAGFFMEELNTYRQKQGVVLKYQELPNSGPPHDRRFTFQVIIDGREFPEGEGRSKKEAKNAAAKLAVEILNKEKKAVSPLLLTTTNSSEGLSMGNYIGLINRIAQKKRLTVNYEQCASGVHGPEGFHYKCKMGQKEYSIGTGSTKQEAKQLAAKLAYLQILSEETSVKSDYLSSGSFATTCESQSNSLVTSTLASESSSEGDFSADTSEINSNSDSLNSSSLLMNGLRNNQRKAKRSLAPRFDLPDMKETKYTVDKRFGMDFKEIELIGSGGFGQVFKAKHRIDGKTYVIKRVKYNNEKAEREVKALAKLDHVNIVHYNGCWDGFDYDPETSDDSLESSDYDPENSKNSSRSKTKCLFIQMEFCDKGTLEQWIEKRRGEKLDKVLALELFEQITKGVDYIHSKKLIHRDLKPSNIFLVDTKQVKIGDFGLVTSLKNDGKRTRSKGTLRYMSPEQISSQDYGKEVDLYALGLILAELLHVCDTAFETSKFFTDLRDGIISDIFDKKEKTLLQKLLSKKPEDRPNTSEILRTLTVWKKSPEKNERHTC
Chain of UniProt P09619 (whole entry, looked up): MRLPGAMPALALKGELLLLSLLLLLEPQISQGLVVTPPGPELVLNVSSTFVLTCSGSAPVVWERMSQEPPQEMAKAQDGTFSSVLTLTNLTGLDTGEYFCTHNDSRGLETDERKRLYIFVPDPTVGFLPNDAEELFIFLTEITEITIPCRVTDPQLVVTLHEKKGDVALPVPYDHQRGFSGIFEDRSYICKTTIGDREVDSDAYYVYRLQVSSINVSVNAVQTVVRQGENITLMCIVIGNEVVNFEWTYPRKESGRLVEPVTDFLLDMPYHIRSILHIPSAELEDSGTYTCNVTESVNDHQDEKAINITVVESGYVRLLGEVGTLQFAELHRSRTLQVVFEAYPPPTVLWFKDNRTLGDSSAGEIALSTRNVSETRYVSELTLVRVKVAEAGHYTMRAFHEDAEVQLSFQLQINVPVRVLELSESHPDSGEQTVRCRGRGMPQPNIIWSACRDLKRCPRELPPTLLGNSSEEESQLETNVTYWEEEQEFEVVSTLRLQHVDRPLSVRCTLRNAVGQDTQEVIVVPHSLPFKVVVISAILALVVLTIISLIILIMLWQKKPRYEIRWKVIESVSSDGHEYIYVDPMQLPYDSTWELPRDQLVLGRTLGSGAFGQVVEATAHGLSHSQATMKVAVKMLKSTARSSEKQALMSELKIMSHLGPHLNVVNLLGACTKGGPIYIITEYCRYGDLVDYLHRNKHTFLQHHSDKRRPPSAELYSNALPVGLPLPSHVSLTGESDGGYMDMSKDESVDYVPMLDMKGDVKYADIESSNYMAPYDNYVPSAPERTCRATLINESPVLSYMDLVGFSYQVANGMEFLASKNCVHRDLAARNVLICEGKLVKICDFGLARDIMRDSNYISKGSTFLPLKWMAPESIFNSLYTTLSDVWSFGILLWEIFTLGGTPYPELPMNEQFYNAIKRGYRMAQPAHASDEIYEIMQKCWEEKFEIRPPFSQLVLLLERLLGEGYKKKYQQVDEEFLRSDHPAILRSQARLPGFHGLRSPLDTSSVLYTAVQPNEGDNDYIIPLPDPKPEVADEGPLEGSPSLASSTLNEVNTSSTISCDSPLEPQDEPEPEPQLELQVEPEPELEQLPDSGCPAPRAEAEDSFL
Chain of UniProt P78356 (whole entry, looked up): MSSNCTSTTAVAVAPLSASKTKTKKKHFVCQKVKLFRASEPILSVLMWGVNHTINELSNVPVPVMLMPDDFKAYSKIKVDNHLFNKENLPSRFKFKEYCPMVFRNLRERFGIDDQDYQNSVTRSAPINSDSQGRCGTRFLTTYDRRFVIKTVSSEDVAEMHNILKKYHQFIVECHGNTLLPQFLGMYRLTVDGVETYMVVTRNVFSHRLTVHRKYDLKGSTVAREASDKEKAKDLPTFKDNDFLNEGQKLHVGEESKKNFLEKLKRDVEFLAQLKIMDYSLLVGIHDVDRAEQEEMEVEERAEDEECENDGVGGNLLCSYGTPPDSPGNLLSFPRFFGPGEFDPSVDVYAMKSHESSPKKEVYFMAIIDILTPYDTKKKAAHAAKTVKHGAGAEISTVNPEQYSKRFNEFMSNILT
Chain of UniProt Q13237 (whole entry, looked up): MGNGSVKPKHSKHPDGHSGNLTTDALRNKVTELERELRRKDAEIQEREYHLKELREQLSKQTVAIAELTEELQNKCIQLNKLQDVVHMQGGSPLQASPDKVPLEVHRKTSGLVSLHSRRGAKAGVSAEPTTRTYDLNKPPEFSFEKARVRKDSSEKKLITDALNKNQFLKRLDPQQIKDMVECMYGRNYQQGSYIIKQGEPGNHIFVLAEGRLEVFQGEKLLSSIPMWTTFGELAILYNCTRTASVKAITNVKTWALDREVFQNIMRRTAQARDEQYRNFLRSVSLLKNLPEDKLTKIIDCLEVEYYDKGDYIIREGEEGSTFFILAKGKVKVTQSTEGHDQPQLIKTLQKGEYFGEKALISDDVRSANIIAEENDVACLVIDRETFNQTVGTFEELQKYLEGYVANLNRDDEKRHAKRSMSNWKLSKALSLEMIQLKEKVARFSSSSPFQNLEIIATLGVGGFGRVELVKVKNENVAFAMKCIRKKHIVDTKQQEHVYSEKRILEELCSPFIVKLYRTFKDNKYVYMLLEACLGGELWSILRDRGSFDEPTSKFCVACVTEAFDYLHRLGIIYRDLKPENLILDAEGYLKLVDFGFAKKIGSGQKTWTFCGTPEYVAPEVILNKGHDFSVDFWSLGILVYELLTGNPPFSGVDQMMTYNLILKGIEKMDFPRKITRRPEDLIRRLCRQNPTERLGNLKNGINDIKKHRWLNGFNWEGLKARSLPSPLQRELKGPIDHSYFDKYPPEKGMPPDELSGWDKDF

Set 1
Target: Calcium/calmodulin-dependent protein kinase type II subunit alpha (CAMK2A, Homo sapiens, UniProt Q9UQM7)
Chain of UniProt Q9UQM7 (whole entry, looked up): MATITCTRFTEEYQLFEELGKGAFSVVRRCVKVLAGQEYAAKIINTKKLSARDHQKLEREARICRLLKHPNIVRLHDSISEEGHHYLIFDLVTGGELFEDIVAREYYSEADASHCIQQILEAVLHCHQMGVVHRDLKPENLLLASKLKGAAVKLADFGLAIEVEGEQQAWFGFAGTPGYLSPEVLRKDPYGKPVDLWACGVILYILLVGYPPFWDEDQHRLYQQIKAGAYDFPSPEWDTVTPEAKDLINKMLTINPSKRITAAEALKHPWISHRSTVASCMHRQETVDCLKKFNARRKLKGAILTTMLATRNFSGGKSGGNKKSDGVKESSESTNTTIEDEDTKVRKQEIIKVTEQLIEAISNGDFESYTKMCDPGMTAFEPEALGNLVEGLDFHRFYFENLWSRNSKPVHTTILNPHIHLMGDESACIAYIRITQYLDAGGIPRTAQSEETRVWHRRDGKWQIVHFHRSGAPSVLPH
Read-out: enzyme activity
Action: inhibitor
Concentration: 10 µM
Compound	inhibition
COc1cc([C@@H]2c3cc4c(cc3[C@H](O)[C@H]3COC(=O)[C@H]23)OCO4)cc(OC)c1OC	-3%
CCCCCCCCCCC/C=C\CCCCC(=O)O	12%
O=C(Nc1nc(-c2cc(Cl)cs2)c(N2CCN(C3CCCCC3)CC2)s1)c1cnc(N2CCC(C(=O)O)CC2)c(Cl)c1	4%
O=c1c(-c2ccc(O)cc2)coc2c([C@@H]3O[C@H](CO)[C@@H](O)[C@H](O)[C@H]3O)c(O)ccc12	18%
COC(=O)Cc1ccc(O)cc1	-18%
Cc1nc(C(=O)NCC(=O)O)c(O)c2ccc(Oc3ccccc3)cc12	-3%
O=C(O)c1ccc(C(=O)O)cc1	-24%
C=C(C)[C@@H]1CC=C(/C=N/O)CC1	-10%
C[C@H](O)[C@@H](O)[C@@H](O)[C@H](O)CO	0%
CC(C)(C)c1cc(C(C)(C)C)c(NC(=O)c2c[nH]c3ccccc3c2=O)cc1O	0%
Cc1cc2cc(Oc3ccnc(Nc4cccc(CS(=O)(=O)NCCN(C)C)c4)n3)ccc2[nH]1	-9%
COC(=O)C1=CO[C@@H](C)[C@H]2CN3CCc4c([nH]c5ccccc45)[C@@H]3C[C@H]12	14%

Set 2
Technique: logD(dd/w) and ALogP
Setting: JT method
SMILES	lipophilic permeability efficiency
CC(C)C[C@@H]1NC(=O)[C@H](CC(C)C)NC(=O)[C@@H](CC(C)C)NC(=O)[C@@H](C(C)C)NC(=O)[C@H](C(C)C)NC(=O)[C@H](CC(C)C)NC(=O)[C@@H](CC(C)C)NC1=O	3.29
CC(C)C[C@@H]1NC(=O)[C@@H](C)NC(=O)[C@@H](CC(C)C)NC(=O)[C@@H](C(C)C)NC(=O)[C@H](C)NC(=O)[C@H](CC(C)C)NC(=O)[C@@H](CC(C)C)NC1=O	2.64
CC(C)C[C@@H]1NC(=O)[C@H](CC(C)C)NC(=O)[C@H](CC(C)C)NC(=O)[C@H](CC(C)C)NC(=O)[C@H](C(C)C)NC(=O)[C@H](C)NC(=O)[C@H](C)NC1=O	2.48
CC(C)C[C@@H]1NC(=O)[C@H](C)NC(=O)[C@@H](CC(C)C)NC(=O)[C@H](CC(C)C)NC(=O)[C@H](C(C)C)NC(=O)[C@H](CC(C)C)NC(=O)[C@@H](CC(C)C)NC1=O	2.61
CC(C)C[C@@H]1NC(=O)[C@H](CC(C)C)NC(=O)[C@@H](CC(C)C)NC(=O)[C@H](C)NC(=O)[C@H](C)NC(=O)[C@@H](CC(C)C)NC(=O)[C@H](C)NC1=O	2.32
CC(C)C[C@@H]1NC(=O)[C@H](CC(C)C)NC(=O)[C@@H](CC(C)C)NC(=O)[C@@H](C)NC(=O)[C@H](C)NC(=O)[C@H](Cc2cscn2)NC(=O)[C@H](CCC(=O)N2CCCC2)NC1=O	1.88
CC(C)C[C@@H]1NC(=O)[C@H](C)NC(=O)[C@@H](CC(C)C)NC(=O)[C@@H](CC(C)C)NC(=O)[C@@H](CCC(=O)N2CCCC2)NC(=O)[C@H](CC(C)C)NC(=O)[C@@H](CC(C)C)NC1=O	2.29
CC(C)C[C@@H]1NC(=O)[C@H](C)NC(=O)[C@@H](CC(C)C)NC(=O)[C@H](C)NC(=O)[C@H](CC(C)C)NC(=O)[C@H](CC(C)C)NC(=O)[C@@H](C(C)C)NC1=O	2.57
CC(C)C[C@@H]1NC(=O)[C@H](C(C)C)NC(=O)[C@H](Cc2cscn2)NC(=O)[C@@H](CC(C)C)NC(=O)[C@@H](CCC(=O)N2CCCC2)NC(=O)[C@H](CC(C)C)NC(=O)[C@@H](CC(C)C)NC1=O	2.11
CC(C)C[C@@H]1NC(=O)[C@H](CC(C)C)NC(=O)[C@@H](CC(C)C)NC(=O)[C@@H](CC(C)C)NC(=O)[C@@H](Cc2cscn2)NC(=O)[C@H](CC(C)C)NC(=O)[C@@H](CC(C)C)NC1=O	2.13
CC(C)C[C@@H]1NC(=O)[C@H](CC(C)C)NC(=O)[C@@H](CC(C)C)NC(=O)[C@H](C)NC(=O)[C@@H](CCC(=O)N2CCCC2)NC(=O)[C@H](C)NC(=O)[C@H](C)NC1=O	1.3
CC(C)C[C@@H]1NC(=O)[C@@H](C)NC(=O)[C@H](C)NC(=O)[C@H](C)NC(=O)[C@H](C(C)C)NC(=O)[C@H](CC(C)C)NC(=O)[C@@H](CC(C)C)NC1=O	1.95
CC(C)C[C@@H]1NC(=O)[C@H](CC(C)C)NC(=O)[C@H](CC(C)C)NC(=O)[C@H](CC(C)C)NC(=O)[C@@H](CCC(=O)N2CCCC2)NC(=O)[C@H](C)NC(=O)[C@H](C)NC1=O	2.07
CC(C)C[C@@H]1NC(=O)[C@H](C)NC(=O)[C@@H](CC(C)C)NC(=O)[C@H](C(C)C)NC(=O)[C@H](CC(C)C)NC(=O)[C@@H](CC(C)C)NC(=O)[C@H](CC(C)C)NC1=O	2.48
CC(C)C[C@@H]1NC(=O)[C@H](C)NC(=O)[C@H](C)NC(=O)[C@H](CC(C)C)NC(=O)[C@H](C(C)C)NC(=O)[C@H](CC(C)C)NC(=O)[C@@H](CC(C)C)NC1=O	2.06

Set 3
Target: Protein kinase C zeta type (PRKCZ, Homo sapiens, UniProt Q05513)
Chain of UniProt Q05513 (whole entry, looked up): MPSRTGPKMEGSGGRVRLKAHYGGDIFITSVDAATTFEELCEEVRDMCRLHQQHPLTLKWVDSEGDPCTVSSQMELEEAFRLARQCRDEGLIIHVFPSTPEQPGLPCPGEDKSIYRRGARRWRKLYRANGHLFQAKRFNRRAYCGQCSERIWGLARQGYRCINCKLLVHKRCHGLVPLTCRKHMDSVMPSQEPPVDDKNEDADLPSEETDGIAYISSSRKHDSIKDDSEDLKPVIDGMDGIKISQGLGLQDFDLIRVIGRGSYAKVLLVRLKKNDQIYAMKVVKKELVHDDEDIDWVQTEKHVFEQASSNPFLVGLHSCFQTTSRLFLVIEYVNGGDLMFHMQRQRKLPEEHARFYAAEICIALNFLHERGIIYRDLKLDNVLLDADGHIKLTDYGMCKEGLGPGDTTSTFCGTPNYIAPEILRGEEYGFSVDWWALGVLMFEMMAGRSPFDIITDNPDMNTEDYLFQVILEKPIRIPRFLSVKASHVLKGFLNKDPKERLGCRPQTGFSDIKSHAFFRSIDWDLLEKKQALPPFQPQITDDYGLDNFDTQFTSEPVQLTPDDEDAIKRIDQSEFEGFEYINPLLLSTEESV
Read-out: enzyme activity
Action: inhibitor
Concentration: 0.5 µM
Baseline: control
Structure (SMILES)	remaining activity
NC(=O)c1cccc(-c2cc(Nc3ccc(OC(F)(F)F)cc3)ncn2)c1	100%
C[C@@H](N)[C@H]1CC[C@H](C(=O)Nc2ccncc2)CC1	99.2%
CC(C)(C)c1nc2c3cc[nH]c(=O)c3c3cc(F)ccc3c2[nH]1	93.2%
N#C/C(=C(/N)SC1C=CC=CC1)c1cccc(C(O)c2ccncc2)c1 (stereo not drawn)	102%
COc1cc2c(N3CCN(C(=O)Nc4ccc(OC(C)C)cc4)CC3)ncnc2cc1OCCCN1CCCCC1	103%
N#CC(c1ccnc(NCCc2cccnc2)n1)c1nc2ccccc2s1 (stereo not drawn)	102%
CCN(CC)CCCCN1c2ccccc2Oc2ccc(Cl)cc21	105%
Nc1nc(Nc2ccc(S(N)(=O)=O)cc2)nn1C(=S)Nc1c(F)cccc1F	83.7%
CNc1cc2c(Nc3cccc(Br)c3)ncnc2cn1	98.6%
COc1cc2c(Nc3ccc(Br)cc3F)ncnc2cc1OCC1CCN(C)CC1	97.8%
c1cc(-c2cnn3cc(-c4ccc(OCCN5CCCCC5)cc4)cnc23)ccn1	101%
O=C1NC(=O)/C(=C/c2ccc3c(c2)OC(F)(F)O3)S1	103%
O=Nc1c(-c2c(O)[nH]c3ccccc23)[nH]c2ccccc12	95.2%
FC(F)(F)c1ccc(/C=C/c2nc(COc3ccc(CCCCn4ccnn4)cc3)co2)cc1	101%
CC(C)n1cnc2c(Nc3cccc(Cl)c3)nc(NCCO)nc21	97.8%
Clc1ccc(Nc2nnc(Cc3ccncc3)c3ccccc23)cc1	69.5%
O=C(c1ccccc1)c1ccc(N2CCOCC2)cc1O	85%
NC(=O)c1ccc(-c2nc(-c3ccc4c(c3)OCCO4)c(-c3ccccn3)[nH]2)cc1	104%
CC(C)N(CCC(=O)c1ccc2ccccc2c1)Cc1ccccc1	100%
O=C(O)/C=C/c1cc(Br)c(Br)c(Br)c1Br	89.2%

Set 4
Compound: CCc1ccccc1C(=O)Nc1n[nH]c2c(C)c(F)c(C3C(C#N)=C(C)N(C)C(C)=C3C#N)cc12
Concentration: 1 µM
target	read-out	technique	remaining binding
TNNI3K (Homo sapiens, UniProt Q59H18)	cell-free assay	competition with immobilised ligand	87%
ACVR2A (Homo sapiens, UniProt P27037)	cell-free assay	competition with immobilised ligand	100%
Ribosomal protein S6 kinase alpha-3, C-terminal kinase domain (RPS6KA3, Homo sapiens, UniProt P51812)	cell-free assay	competition with immobilised ligand	100%
LYN (Homo sapiens, UniProt P07948)	cell-free assay	competition with immobilised ligand	86%
PDGFRB (Homo sapiens, UniProt P09619)	cell-free assay	competition with immobilised ligand	82%
NLK (Homo sapiens, UniProt Q9UBE8)	binding	competition with immobilised ligand	100%
PRKX (Homo sapiens, UniProt P51817)	cell-free assay	competition with immobilised ligand	88%
SIK1 (Homo sapiens, UniProt P57059)	–	competition binding	66%
CLK2 (Homo sapiens, UniProt P49760)	cell-free assay	competition with immobilised ligand	55%
CDK2 (Homo sapiens, UniProt P24941)	cell-free assay	competition with immobilised ligand	100%
EPHA1 (Homo sapiens, UniProt P21709)	cell-free assay	competition with immobilised ligand	60%
VRK2 (Homo sapiens, UniProt Q86Y07)	cell-free assay	competition with immobilised ligand	100%
IRAK3 (Homo sapiens, UniProt Q9Y616)	cell-free assay	competition with immobilised ligand	98%
RIOK3 (Homo sapiens, UniProt O14730)	cell-free assay	competition with immobilised ligand	45%
Aurora kinase A (AURKA, Homo sapiens, UniProt O14965)	cell-free assay	competition with immobilised ligand	51%
CDK11A (Homo sapiens, UniProt Q9UQ88)	binding	competition with immobilised ligand	86%
EIF2AK2 (Homo sapiens, UniProt P19525)	cell-free assay	competition with immobilised ligand	100%
PIP4K2B (Homo sapiens, UniProt P78356)	cell-free assay	competition with immobilised ligand	91%
PRKG2 (Homo sapiens, UniProt Q13237)	cell-free assay	competition with immobilised ligand	100%
CDKL2 (Homo sapiens, UniProt Q92772)	binding	competition with immobilised ligand	94%
FLT3 (Homo sapiens, UniProt P36888, D835Y)	cell-free assay	competition with immobilised ligand	2.5%
NEK7 (Homo sapiens, UniProt Q8TDX7)	cell-free assay	competition with immobilised ligand	83%
STK39 (Homo sapiens, UniProt Q9UEW8)	cell-free assay	competition with immobilised ligand	100%
BLK (Homo sapiens, UniProt P51451)	cell-free assay	competition with immobilised ligand	100%
MAPKAPK5 (Homo sapiens, UniProt Q8IW41)	cell-free assay	competition with immobilised ligand	100%

Repeated from above (set 3):
Structure (SMILES)	remaining activity
C[C@@H](N)[C@H]1CC[C@H](C(=O)Nc2ccncc2)CC1	99.2%
Clc1ccc(Nc2nnc(Cc3ccncc3)c3ccccc23)cc1	69.5%
CC(C)n1cnc2c(Nc3cccc(Cl)c3)nc(NCCO)nc21	97.8%
O=C(O)/C=C/c1cc(Br)c(Br)c(Br)c1Br	89.2%
Nc1nc(Nc2ccc(S(N)(=O)=O)cc2)nn1C(=S)Nc1c(F)cccc1F	83.7%
O=C(c1ccccc1)c1ccc(N2CCOCC2)cc1O	85%
NC(=O)c1ccc(-c2nc(-c3ccc4c(c3)OCCO4)c(-c3ccccn3)[nH]2)cc1	104%
O=C1NC(=O)/C(=C/c2ccc3c(c2)OC(F)(F)O3)S1	103%
FC(F)(F)c1ccc(/C=C/c2nc(COc3ccc(CCCCn4ccnn4)cc3)co2)cc1	101%
O=Nc1c(-c2c(O)[nH]c3ccccc23)[nH]c2ccccc12	95.2%
CCN(CC)CCCCN1c2ccccc2Oc2ccc(Cl)cc21	105%
